Published values collected from several papers.
Numbers after ± are the reported error.
F2: Prothrombin (F2, Homo sapiens, UniProt P00734)
Dihydrofolate reductase type 2: Dihydrofolate reductase type 2 (Escherichia coli, UniProt P00383)
Chain of UniProt P00383 (whole entry, looked up): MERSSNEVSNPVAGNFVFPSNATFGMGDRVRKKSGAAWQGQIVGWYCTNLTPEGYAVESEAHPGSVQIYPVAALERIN
RET: Proto-oncogene tyrosine-protein kinase receptor Ret (RET, Homo sapiens, UniProt P07949)
Chain of UniProt P07949 (whole entry, looked up): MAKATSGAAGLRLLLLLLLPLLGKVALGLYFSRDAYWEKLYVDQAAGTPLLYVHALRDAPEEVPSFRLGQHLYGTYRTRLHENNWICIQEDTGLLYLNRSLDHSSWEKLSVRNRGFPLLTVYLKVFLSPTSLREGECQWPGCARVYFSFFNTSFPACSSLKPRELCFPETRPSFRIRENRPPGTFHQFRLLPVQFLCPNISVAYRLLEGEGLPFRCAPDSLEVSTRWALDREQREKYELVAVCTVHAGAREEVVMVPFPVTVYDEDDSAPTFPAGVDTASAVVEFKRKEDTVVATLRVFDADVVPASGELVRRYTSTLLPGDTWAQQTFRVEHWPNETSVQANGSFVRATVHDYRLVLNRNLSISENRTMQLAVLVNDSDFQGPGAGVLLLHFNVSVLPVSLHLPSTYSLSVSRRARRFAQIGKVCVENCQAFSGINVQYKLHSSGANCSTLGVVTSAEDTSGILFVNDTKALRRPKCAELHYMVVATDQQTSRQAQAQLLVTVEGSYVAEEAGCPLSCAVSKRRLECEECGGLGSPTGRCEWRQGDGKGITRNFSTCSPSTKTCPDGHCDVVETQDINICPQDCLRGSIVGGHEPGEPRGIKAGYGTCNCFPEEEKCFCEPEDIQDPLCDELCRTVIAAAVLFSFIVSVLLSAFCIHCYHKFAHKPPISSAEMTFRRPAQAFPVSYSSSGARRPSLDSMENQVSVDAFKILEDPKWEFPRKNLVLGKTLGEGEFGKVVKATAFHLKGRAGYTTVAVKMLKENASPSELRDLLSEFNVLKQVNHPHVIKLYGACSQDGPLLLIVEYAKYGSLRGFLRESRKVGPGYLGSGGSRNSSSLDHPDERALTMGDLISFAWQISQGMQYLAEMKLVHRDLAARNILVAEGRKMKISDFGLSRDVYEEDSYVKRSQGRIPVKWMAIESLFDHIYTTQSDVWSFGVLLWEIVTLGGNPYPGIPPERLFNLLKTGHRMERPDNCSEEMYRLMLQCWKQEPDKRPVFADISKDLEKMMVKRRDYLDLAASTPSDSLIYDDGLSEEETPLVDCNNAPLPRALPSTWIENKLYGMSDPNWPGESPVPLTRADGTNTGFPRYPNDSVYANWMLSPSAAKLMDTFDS
PSMB5: Proteasome Macropain subunit MB1 (PSMB5, Homo sapiens, UniProt P28074)
Chain of UniProt P28074 (whole entry, looked up): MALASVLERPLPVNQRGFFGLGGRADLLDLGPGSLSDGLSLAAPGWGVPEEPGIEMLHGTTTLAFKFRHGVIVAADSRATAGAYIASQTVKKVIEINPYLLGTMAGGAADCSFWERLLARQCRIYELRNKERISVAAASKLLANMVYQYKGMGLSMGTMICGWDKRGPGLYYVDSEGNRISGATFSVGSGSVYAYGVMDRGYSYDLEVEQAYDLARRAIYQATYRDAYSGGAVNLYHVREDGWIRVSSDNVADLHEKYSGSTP
TGM2: Protein-glutamine gamma-glutamyltransferase (TGM2, Homo sapiens, UniProt P21980)
Chain of UniProt P21980 (whole entry, looked up): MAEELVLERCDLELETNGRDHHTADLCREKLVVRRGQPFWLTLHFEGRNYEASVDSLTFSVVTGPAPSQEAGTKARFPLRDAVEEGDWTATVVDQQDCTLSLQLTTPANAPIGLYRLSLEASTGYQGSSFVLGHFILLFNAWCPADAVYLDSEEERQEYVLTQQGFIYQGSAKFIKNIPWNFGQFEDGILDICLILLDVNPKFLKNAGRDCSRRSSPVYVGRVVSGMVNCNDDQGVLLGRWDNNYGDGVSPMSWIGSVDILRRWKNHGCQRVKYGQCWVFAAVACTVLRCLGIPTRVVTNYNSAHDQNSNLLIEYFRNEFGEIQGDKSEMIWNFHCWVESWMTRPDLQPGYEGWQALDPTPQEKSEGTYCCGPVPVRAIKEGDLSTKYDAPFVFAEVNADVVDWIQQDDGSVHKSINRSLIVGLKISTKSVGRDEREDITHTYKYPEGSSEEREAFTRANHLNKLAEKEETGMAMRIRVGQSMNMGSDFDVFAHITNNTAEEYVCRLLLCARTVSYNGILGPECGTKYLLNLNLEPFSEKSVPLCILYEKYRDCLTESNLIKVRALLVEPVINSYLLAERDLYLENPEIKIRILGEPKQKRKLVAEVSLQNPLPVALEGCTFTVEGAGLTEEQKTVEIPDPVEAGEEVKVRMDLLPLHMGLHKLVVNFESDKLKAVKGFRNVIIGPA
CSNK1D: Casein kinase I isoform delta (CSNK1D, Homo sapiens, UniProt P48730)
Chain of UniProt P48730 (whole entry, looked up): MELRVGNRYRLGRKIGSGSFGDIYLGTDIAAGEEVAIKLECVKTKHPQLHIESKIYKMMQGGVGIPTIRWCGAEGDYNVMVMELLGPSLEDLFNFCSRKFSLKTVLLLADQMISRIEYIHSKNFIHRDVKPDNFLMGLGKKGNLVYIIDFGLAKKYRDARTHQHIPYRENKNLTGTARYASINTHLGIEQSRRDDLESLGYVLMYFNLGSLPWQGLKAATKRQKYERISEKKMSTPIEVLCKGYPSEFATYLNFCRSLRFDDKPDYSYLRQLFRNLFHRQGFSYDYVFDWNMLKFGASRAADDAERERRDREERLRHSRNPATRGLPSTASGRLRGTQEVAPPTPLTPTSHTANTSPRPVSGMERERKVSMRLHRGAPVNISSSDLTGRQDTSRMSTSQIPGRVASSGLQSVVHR
PPARG with RXR: Peroxisome proliferator-activated receptor gamma, with RXR (PPARG, Homo sapiens, UniProt P37231)
Chain of UniProt P37231 (whole entry, looked up): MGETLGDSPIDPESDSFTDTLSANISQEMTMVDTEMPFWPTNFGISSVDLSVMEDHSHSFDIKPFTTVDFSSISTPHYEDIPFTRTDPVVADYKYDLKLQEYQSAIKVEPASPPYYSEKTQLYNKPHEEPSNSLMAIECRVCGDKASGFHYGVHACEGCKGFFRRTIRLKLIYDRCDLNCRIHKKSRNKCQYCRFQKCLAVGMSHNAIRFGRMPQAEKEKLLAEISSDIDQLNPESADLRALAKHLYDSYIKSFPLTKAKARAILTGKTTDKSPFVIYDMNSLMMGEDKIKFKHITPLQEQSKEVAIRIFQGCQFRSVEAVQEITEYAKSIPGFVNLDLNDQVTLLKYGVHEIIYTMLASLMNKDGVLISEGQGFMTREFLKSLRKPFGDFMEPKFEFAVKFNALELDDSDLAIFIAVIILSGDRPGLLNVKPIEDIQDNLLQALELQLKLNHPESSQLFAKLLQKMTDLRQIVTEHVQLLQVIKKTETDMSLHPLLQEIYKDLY
Proteasome component C5/PSMB5: Proteasome component C5/PSMB5 (Homo sapiens, UniProt P20618+P28074)
Chain of UniProt P20618 (whole entry, looked up): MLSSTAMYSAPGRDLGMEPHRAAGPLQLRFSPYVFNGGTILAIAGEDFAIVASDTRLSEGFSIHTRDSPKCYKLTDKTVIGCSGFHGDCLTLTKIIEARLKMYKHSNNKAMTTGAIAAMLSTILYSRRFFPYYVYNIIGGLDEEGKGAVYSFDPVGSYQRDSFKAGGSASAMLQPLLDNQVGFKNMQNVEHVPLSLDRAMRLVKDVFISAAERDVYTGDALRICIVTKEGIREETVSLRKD
Phospholipase A2, membrane associated: Phospholipase A2, membrane associated (Homo sapiens, UniProt P14555)
Chain of UniProt P14555 (whole entry, looked up): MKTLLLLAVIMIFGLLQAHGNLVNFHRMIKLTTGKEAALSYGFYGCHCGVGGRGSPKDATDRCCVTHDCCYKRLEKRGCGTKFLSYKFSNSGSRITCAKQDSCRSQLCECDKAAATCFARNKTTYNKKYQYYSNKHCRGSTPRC
Protein AF-9 with DOT1L: Protein AF-9, with DOT1L (Homo sapiens, UniProt P42568)
Chain of UniProt P42568 (whole entry, looked up): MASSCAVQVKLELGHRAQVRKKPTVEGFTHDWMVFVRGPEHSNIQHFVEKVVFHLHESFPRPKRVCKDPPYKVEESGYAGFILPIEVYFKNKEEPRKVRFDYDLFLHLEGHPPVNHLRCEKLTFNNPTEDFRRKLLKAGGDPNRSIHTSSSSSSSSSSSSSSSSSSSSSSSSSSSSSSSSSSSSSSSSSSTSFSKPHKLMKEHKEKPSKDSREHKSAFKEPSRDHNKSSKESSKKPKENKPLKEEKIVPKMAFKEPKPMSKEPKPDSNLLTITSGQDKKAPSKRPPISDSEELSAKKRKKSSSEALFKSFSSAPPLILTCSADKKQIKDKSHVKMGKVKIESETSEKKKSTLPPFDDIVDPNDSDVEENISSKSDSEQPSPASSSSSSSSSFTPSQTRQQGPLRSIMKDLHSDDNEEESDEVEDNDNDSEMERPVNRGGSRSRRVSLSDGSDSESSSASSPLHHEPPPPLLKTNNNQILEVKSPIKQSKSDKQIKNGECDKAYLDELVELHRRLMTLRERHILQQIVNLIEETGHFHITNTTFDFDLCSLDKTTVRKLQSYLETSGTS
AR: Androgen receptor (AR, Homo sapiens, UniProt P10275)
Chain of UniProt P10275 (whole entry, looked up): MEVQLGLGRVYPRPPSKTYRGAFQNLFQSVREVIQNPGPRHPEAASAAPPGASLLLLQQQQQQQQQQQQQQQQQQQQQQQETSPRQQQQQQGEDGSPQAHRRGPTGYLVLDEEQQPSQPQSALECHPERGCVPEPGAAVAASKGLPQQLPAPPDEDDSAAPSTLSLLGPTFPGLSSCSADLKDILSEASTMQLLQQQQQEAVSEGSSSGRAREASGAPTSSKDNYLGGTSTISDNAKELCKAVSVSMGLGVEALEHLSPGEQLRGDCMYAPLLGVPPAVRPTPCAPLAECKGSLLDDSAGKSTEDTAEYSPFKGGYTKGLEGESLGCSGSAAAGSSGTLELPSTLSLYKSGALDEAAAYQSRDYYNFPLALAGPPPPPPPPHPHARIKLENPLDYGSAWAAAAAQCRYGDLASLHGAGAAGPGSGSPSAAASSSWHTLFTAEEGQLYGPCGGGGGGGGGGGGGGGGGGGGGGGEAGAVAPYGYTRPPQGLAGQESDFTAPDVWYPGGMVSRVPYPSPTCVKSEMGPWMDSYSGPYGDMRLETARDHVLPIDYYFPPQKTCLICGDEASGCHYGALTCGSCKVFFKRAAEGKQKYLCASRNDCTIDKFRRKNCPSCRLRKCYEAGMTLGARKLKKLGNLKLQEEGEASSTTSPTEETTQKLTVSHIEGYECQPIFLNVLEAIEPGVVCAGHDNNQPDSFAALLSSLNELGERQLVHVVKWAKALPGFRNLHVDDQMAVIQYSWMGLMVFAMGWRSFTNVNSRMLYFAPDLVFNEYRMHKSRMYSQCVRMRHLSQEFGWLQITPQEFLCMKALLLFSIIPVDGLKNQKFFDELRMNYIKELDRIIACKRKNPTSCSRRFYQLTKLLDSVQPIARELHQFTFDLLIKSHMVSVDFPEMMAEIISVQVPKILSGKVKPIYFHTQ
SLCO1B1: Solute carrier organic anion transporter family member 1B1 (SLCO1B1, Homo sapiens, UniProt Q9Y6L6)
CYP2E1: Cytochrome P450 2E1 (CYP2E1, Homo sapiens, UniProt P05181)

Compound | target | assay | test system | conditions | IC50
N=C(N)c1ccc(CNC(=O)c2cnn(Cc3ccccc3)c2)cc1 | F2 | – | – | – | 30 µM
COc1ccc(-c2nc3ccc(C(=O)NCc4ccccc4)cc3[nH]2)cc1Br | Dihydrofolate reductase type 2 | enzyme activity | – | pH 7 | > 30 µM
COCC(=O)N1CCC[C@H](C(=O)NCc2nc(-c3ccc(OC)cc3)cs2)C1 | uncharacterized protein (Plasmodium falciparum, UniProt A0A5K1K7U1+Q8I261+Q8IJT1) | Suc-LLVY-AMC | – | – | 0.074 ± 0.015 µM
COC(=O)c1ccc2nc(-c3ccc(O)c(Br)c3)[nH]c2c1 | Dihydrofolate reductase type 2 | enzyme activity | – | pH 7 | > 30 µM
CCn1cc(C(=O)Nc2cccc(O)c2)c(=O)c2cc(F)c(N3CCN(C(C)=O)CC3)cc21 | RET | kinase activity, inhibitor | – | replicate two, together with: 1 µM ATP, poly(Glu,Tyr) | 40.6 µM
COc1ccc(C[C@H](NC(=O)[C@H](C)NC(=O)CN2CCOCC2)C(=O)N[C@@H](CC2CCC3CCCCC3C2)C(=O)[C@@]2(C)CO2)cc1 (stereo partly shown) | PSMB5 | competitive ABPP | Raji cell lysate | – | > 10 µM
O=C1C(SCCO)=C(SCCO)C(=O)c2ccccc21 | TGM2 | enzyme activity, inhibitor, BP incorporation | – | together with: no DTT, Triton 0.02% | 2.5 ± 0.6 µM
Cc1cc(OC(C)C)ccc1C(=O)C(C)(C)NC(=O)c1sccc1C | succinate-cytochrome c oxidoreductase (Alternaria solani, UniProt S5TR76+S5TST0+S5U054) | succinate-cytochrome c reductase activity | Alternaria solani, mitochondrial fraction | 25 °C | 0.00779 µM
CC1=CC(=O)c2ccccc2C1=O | TGM2 | enzyme activity, inhibitor, BP incorporation | – | together with: no DTT, Triton 0.02% | 5.5 ± 2 µM
Fc1ccc(-c2c(-c3ccncc3)ncn2-c2ccccc2)cc1 | CSNK1D | inhibitor | – | – | > 5 µM
O=C1C=Cc2c(c(-c3cccs3)cn2S(=O)(=O)c2ccccc2)C1=O | ELAV-like protein 1, RRM1-RRM2 domains (ELAVL1, Homo sapiens, UniProt Q15717) | HuR-RNA complex formation, REMSA | – | together with: 1 nM labelled RNA probe | 13 µM
COc1ccc([N+](=O)[O-])cc1C(=O)Nc1ccc(CCF)cc1 | PPARG with RXR | reporter gene, antagonist, PPRE-TK-luciferase | transfected HepG2 | 24 h, together with: GW1929 | > 2 µM
O=[N+]([O-])c1cccc(Cl)c1-c1nc(-c2ccc(F)cc2)c(-c2ccncc2)[nH]1 | CSNK1D | inhibitor | – | – | 0.0629 ± 0.0071 µM
Cc1ncc(C(=O)N[C@@H](CC(C)C)C(=O)N[C@@H](CCC2CCCCC2)C(=O)N[C@H](/C=C/S(C)(=O)=O)Cc2ccc(CN)cc2)s1 | PSMB5 | inhibitor, competitive ABPP | Raji cell lysate | constitutive proteasome β5c | 3.63 µM
Fc1ccc(-c2nc(-c3c(F)cccc3Br)[nH]c2-c2ccncc2)cc1 | CSNK1D | inhibitor | – | – | 0.0074 ± 0.0017 µM
Cc1ncc(C(=O)N[C@@H](CC2CCC(C3CCCCC3)CC2)C(=O)N[C@@H](CC(C)C)C(=O)N[C@H](/C=C/S(C)(=O)=O)Cc2ccc(CN)cc2)s1 (stereo partly shown) | PSMB5 | competitive ABPP | Raji cell lysate | – | > 10 µM
COC(=O)c1ccc2nc(-c3ccc(OCCCOc4ccc(-c5nc6ccc(C(=O)OC)cc6[nH]5)cc4Br)c(Br)c3)[nH]c2c1 | Dihydrofolate reductase type 2 | enzyme activity | – | pH 7 | > 30 µM
CCOC(=O)/C=C/C(=O)N(CC(C)C)NC(=O)[C@H](Cc1ccccc1)NC(=O)[C@H](CC(C)C)NC(=O)[C@H](CCc1ccccc1)NC(=O)OCc1ccccc1 | Proteasome component C5/PSMB5 | chymotrypsin-like activity, inhibitor | human 20S proteasome | together with: Suc-LLVY-AMC 100 µM | 8.7 ± 2 µM
CC(=O)C(=O)NNC(=O)[C@H](CC(C)C)NC(=O)[C@H](CC(C)C)NC(=O)OCc1ccccc1 | Proteasome component C5/PSMB5 | β5 chymotrypsin-like activity, inhibitor | – | together with: Suc-LLVY-AMC 100 µM | 2.3 ± 1.5 µM
Cc1ccc(NC(=O)c2ccc(C)c(C(F)(F)F)c2)cc1C#Cc1nn(C2CCC(O)CC2)c2ncnc(N)c12 (stereo not shown) | RET | inhibitor, radiometric kinase | – | together with: ATP 10 µM | 0.004 µM
CC(C)C[C@H](NC(=O)[C@H](Cc1ccccc1)N=[N+]=[N-])C(=O)N[C@@H](CC(C)(C)F)C(=O)N[C@H](/C=C/S(C)(=O)=O)Cc1ccc(CN)cc1 | PSMB5 | competitive ABPP | Raji cell lysate | – | 0.883 µM
Cc1nc2ccc(Br)cc2c(=O)n1/N=C/c1ccc(C(=O)O)cc1 | Phospholipase A2, membrane associated | enzyme activity, inhibitor, colorimetric | – | – | 68.1 ± 4.74 µM
CCn1c(-c2nc3cc(C(=O)N4CCC[C@@H](N)C4)cc(OC)c3n2C)cc2cccnc21 | ADRA1B (Homo sapiens, UniProt P35368) | intracellular calcium, antagonist, luminescence | – | – | > 39.8 µM
COc1cc(NC(=O)Nc2ccc(C)c(F)c2)cc2sc(NC(=O)c3ccccc3)nc12 | RET | kinase activity, inhibitor | – | replicate three, together with: 1 µM ATP, poly(Glu,Tyr) | 7.87 µM
c1cc(N2CCCCC2)ccc1Nc1cc2ncc(OCC3CCNCC3)nc2cc1-c1ccc(N2CCCCC2)cc1 | Protein AF-9 with DOT1L | DOT1L binding, AlphaLISA | – | – | 0.85 ± 0.11 µM
CC(C)C[C@H](NC(=O)CN1CCOCC1)C(=O)N[C@@H](CC(C)C)C(=O)N[C@H](/C=C/S(C)(=O)=O)Cc1ccc(CN)cc1 | PSMB5 | competitive ABPP | Raji cell lysate | – | > 10 µM

Compound | target | assay | test system | conditions | IC50
COc1ccc(F)cc1C(=O)NCc1ccc(-c2nn([C@@H](C)C(F)(F)F)c(N)c2C(N)=O)cc1 | PTK6 (Homo sapiens, UniProt Q13882) | binding, NanoBRET target engagement | HEK293 | together with: tracer | 0.36 ± 0.199 µM
CCc1ccc(/C=N/n2c(C)nc3ccc(C)cc3c2=O)s1 | Phospholipase A2, membrane associated | enzyme activity, inhibitor, colorimetric | – | – | 58.6 ± 3.4 µM
COCc1nn(Cc2ccc(Cn3ccccc3=O)cc2)cc1C(=O)NCc1c(F)ccc(OC)c1F | F2 | – | – | – | > 40 µM
Fc1ccc(-c2nc(-c3ccccc3Cl)[nH]c2-c2ccncc2)cc1 | CSNK1D | inhibitor | – | – | 0.0089 ± 0.0048 µM
C[C@]12CC[C@@H]3c4ccc(O)cc4C[C@@H](CCCCCCCCC[S+]([O-])CCCC(F)(F)C(F)(F)F)[C@H]3[C@@H]1CC[C@@H]2O (stereo partly shown) | AR | agonist | – | – | > 10 µM
CCc1nc2c(C)cc(N3CCN(CC(=O)N4CC(O)C4)CC3)cn2c1N(C)c1nc(-c2ccc(F)cc2)c(C#N)s1 | SLCO1B1 | transport, inhibitor, in vitro | – | – | 2.44 µM
COc1cccc2c(N3CCC(CCP(=O)(O)O)CC3)ncnc12 | Ectonucleotide pyrophosphatase/phosphodiesterase family member 3 (Homo sapiens, UniProt O14638, Q244K) | cGAMP hydrolysis, inhibitor, cGAMP luciferase | – | overnight, together with: cGAMP 2 µM | 0.013 µM
c1cc(-c2cc3ncc(OCC4CCNCC4)nc3cc2-c2cccc(N3CCCC3)c2)cc(N2CCCC2)c1 | Protein AF-9 with DOT1L | DOT1L binding, AlphaLISA | – | – | 2.2 µM
C=CC(=O)Nc1cc(Nc2nccc(-c3cn(C)c4ccccc34)n2)c(OC)cc1N(C)CCN(C)C | SLCO1B1 | transport | – | – | 22 µM
O=c1nc(SCc2cc(F)cc(C(F)(F)F)c2)nc(SCc2ccc3sccc3c2)[nH]1 | TOP2A (Homo sapiens, UniProt P11388) | ATPase activity, ATP-competitive inhibitor | – | together with: ATP 1 mM | 9.3 µM
C[C@H](CCC(=O)O)[C@H]1CC[C@H]2[C@@H]3CC=C4CC(=O)CC[C@]4(C)[C@H]3CC[C@]12C | AR | reporter gene, antagonist, luciferase reporter | – | together with: DHT 15 pM | 0.443 µM
CN1CCN(c2ccc(Nc3ncc4cc(C#N)c(=O)n(C5CCCC5)c4n3)cc2)CC1 | NEK1 (Homo sapiens, UniProt Q96PY6) | – | – | – | 3.23 µM
CCc1oc2ccccc2c1C(=O)c1ccc(O)cc1 | CYP2E1 | p-nitrophenol hydroxylation | baculosomes | 10 min | 0.04 µM
C[C@@H]1CCCN1c1ccc(-c2nc3ccc(C(=O)NC4CCNCC4)cc3nc2-c2ccc(N3CCC[C@H]3C)cc2)cc1 | Protein AF-9 with DOT1L | DOT1L binding, AlphaLISA | – | – | 1.1 µM
Cc1ncc(C(=O)N[C@@H](CC(C)C)C(=O)N[C@@H](CC2CCCCC2)C(=O)N[C@H](/C=C/S(C)(=O)=O)Cc2ccc(CN)cc2)s1 | PSMB5 | competitive ABPP | Raji cell lysate | – | > 10 µM
COc1cc(O)c(-c2nc(-c3ccc(F)cc3)c(-c3ccncc3)[nH]2)c(OC)c1 | CSNK1D | inhibitor | – | – | 5.34 ± 0.497 µM
NCc1ccc(CNC(=O)c2cnn(Cc3ccc(Cn4ccccc4=O)cc3)c2)cc1 | F2 | – | – | – | > 40 µM
C[C@H]1O[C@H](O[C@H]2[C@H](O)[C@@H](O)[C@@H](O[C@H]3[C@H](O)[C@@H](O)C(O)O[C@@H]3CO)O[C@@H]2CO)[C@H](O)[C@@H](O)[C@@H]1N[C@H]1C=C(CO)[C@@H](O)[C@H](O)[C@H]1O (stereo partly shown) | alpha-glucosidase | enzyme activity, inhibitor | – | together with: p-nitrophenyl-alpha-D-glucopyranoside | 145 µM
O=C(Nc1ccccc1)c1cc([N+](=O)[O-])ccc1Cl | PPARG with RXR | reporter gene, antagonist, PPRE-TK-luciferase | transfected HepG2 | 24 h, together with: GW1929 | 0.169 ± 0.049 µM
COC(=O)c1ccc2nc(-c3ccc(OCc4ccccc4)c(Br)c3)[nH]c2c1 | Dihydrofolate reductase type 2 | enzyme activity | – | pH 7 | > 30 µM
CC(C)C[C@H](NC(=O)[C@H](CCc1ccccc1)NC(=O)CN1CCOCC1)C(=O)N[C@@H](Cc1ccccc1)C(=O)N[C@@H](CC(C)C)C(=O)[C@@]1(C)CO1 | Proteasome subunit beta type-9 (Mus musculus, UniProt P28076) | proteasome subunit activity | Ba/F3 BCR-ABL1 T315I | 1 h pulse | 0.243 ± 0.0531 µM
CC1CC(C)CN(c2ccc(C=NNc3nc(-c4ccc(Cl)cc4)cs3)cc2)C1 (stereo not shown) | alpha-glucosidase | enzyme activity, inhibitor | – | together with: p-nitrophenyl-alpha-D-glucopyranoside | 13.3 µM
CCc1oc2ccccc2c1C(=O)c1cc(Br)c(O)c(Br)c1 | CYP2E1 | p-nitrophenol hydroxylation, inhibitor | baculosomes | 10 min, with additive 1 µM | 4.3 µM
Fc1ccc(-c2nc(-c3ccc4ccccc4c3F)[nH]c2-c2ccncc2)cc1 | CSNK1D | inhibitor | – | – | 0.015 ± 0.003 µM
O=C(NC1CCNCC1)c1ccc2nc(-c3ccc(N4CCCC4)cc3)c(-c3ccc(N4CCCC4)cc3)nc2c1 | Protein AF-9 with DOT1L | DOT1L binding, AlphaLISA | – | – | 1.2 µM
CC[C@@H]1[C@H](F)C(=O)N[C@@H]1COc1nccc2cc(C(N)=O)c(OC)cc12 | CHEK2 (Homo sapiens, UniProt O96017) | ATP-site probe binding, ActivX profiling | THP-1 cell lysate | Lys1 site | 3.5 µM

For quick reference, copied from above:
Compound | target | assay | test system | conditions | IC50
O=c1nc(SCc2cc(F)cc(C(F)(F)F)c2)nc(SCc2ccc3sccc3c2)[nH]1 | TOP2A (Homo sapiens, UniProt P11388) | ATPase activity, ATP-competitive inhibitor | – | together with: ATP 1 mM | 9.3 µM
COc1cc(NC(=O)Nc2ccc(C)c(F)c2)cc2sc(NC(=O)c3ccccc3)nc12 | RET | kinase activity, inhibitor | – | replicate three, together with: 1 µM ATP, poly(Glu,Tyr) | 7.87 µM
c1cc(-c2cc3ncc(OCC4CCNCC4)nc3cc2-c2cccc(N3CCCC3)c2)cc(N2CCCC2)c1 | Protein AF-9 with DOT1L | DOT1L binding, AlphaLISA | – | – | 2.2 µM
CC1=CC(=O)c2ccccc2C1=O | TGM2 | enzyme activity, inhibitor, BP incorporation | – | together with: no DTT, Triton 0.02% | 5.5 ± 2 µM
